# Measurements of several laboratories.
# Numbered parts are unrelated; each lists some results of a single study. Substitutions count along the parent as printed.

# Block 1 — target: CCNA2, cyclin fold, Cln2 fusion (human); technique: yeast growth competition, sequencing; medium: yeast; notes: strong parent motif; baseline: not given; direction: higher = stronger binding
# Starting sequence: CUX1 docking peptide (human); SRIRRELFIEEIQ; partner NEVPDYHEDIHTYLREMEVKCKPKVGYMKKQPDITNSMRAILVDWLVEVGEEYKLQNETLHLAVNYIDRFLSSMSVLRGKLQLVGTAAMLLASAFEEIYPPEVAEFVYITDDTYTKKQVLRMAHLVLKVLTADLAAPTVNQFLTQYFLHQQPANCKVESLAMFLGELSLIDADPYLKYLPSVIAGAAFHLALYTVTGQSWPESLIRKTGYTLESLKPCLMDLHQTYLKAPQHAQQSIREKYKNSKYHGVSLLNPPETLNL
Substitution,normalised enrichment score
SRIRKELFIEEIQ [R5K],3.04
SRIRRELFIEAIQ [E11A],2.97
ARIRRELFIEEIQ [S1A],4.34
SAIRRELFIEEIQ [R2A],2.29

# Block 2 — technique: DHFR PCA, deep sequencing; medium: yeast; added: (+)-ABA 58 µM; baseline: wild-type fitted maximum; direction: higher = stronger binding
# Target: ABI1, truncated, D143A, DHFR fusion (Arabidopsis thaliana)
# Notes: methotrexate growth selection, single substitutions
# Starting sequence: PYL1, truncated, DHFR fusion (Arabidopsis thaliana); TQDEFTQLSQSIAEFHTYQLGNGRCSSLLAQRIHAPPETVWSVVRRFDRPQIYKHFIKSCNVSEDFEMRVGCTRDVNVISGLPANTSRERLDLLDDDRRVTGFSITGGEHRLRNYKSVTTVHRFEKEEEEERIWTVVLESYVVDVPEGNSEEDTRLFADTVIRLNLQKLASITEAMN
Substitution,relative binding score
Y141G,-0.583%
Q51V,21.2%
E151I,80.8%
S104I,31.8%
R111K,72.9%
M68E,59.6%

# Block 3 — technique: Sort-seq; measured: YFP reporter; medium: E. coli; notes: PhoQ-PhoP variant library; added: 10 µM Mg2+; baseline: high Mg2+ state; direction: higher = stronger signaling
# Substance: PhoQ, residues 284 288 289 292 302 303 SNGLAW
target,fold induction
"PhoP, residues 12 14 15 18 19 LHTVL (Escherichia coli, UniProt P23836)",10.4
"PhoP, residues 12 14 15 18 19 TQAML (Escherichia coli, UniProt P23836)",11.9
"PhoP, residues 12 14 15 18 19 NQCAL (Escherichia coli, UniProt P23836)",12.2

# Block 4 — technique: RNA Bind-n-Seq; molecule type: RNA; medium: in vitro; tested at: 200 nM; notes: whole 134-nt RNA, ends assumed; added: 150 mM KCl; baseline: input library; direction: higher = stronger binding
# Target: Ras GTPase-activating protein-binding protein 1, full length (G3BP1, Homo sapiens, UniProt Q13283)
# Sequence of UniProt Q13283 (whole entry, looked up): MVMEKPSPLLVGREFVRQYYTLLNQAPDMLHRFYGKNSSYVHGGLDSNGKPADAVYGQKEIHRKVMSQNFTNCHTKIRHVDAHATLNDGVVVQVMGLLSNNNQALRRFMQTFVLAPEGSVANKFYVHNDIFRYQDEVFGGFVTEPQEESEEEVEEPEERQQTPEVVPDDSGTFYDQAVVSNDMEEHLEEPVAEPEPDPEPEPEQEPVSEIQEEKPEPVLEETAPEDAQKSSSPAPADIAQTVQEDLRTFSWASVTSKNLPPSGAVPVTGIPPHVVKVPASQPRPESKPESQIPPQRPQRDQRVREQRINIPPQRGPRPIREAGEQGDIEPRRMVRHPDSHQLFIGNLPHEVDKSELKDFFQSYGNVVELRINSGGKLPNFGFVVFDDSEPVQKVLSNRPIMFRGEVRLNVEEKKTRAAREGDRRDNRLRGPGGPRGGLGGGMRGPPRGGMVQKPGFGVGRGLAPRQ
# All sequences stand within: GGGAGUUCUACAGUCCGACGAUC … UGGAAUUCUCGGGUGUCAAGG
Oligonucleotide,log2 enrichment
GUCCUGUGCUACACAUCGUAUGUACCGAAUCGGGAAAAAAAGGGUUUGGGAAAAAGGGAAAGUAUUAUGUUACGCCGUUCGGAUCUGCAC,-0.639
CUCAAGUCCUGUGCUACACAUCGUAUGUACCGAAUCGGUUUGGUUUGGUUUGGGAAAGUAUUAUGUUACGCCGUUCGGAUCUGCACUUCC,-0.597
CUCAAGUCCUGUGCUACACAUCGUAUGUACCGAAUCGGUUUGGAGGAAAAAGGAAAGUAUUAUGUUACGCCGUUCGGAUCUGCACUUCCA,-0.243
UCCUCAAGUCCUGUGCUACACAUCGUAUGUACCGAAUCGGGAGGGGAGGAGGAAAGUAUUAUGUUACGCCGUUCGGAUCUGCACUUCCAG,0.173
UGGGAGGUGGAGUUUGUUUAUUUUUUUAGCUCAUUUCCAGGGGUGGGAAUUUUUUUUUAAUAUGUGUCAUGAAUAAAGUUGUUUUUGAAA,0.0958
GUCCUGUGCUACACAUCGUAUGUACCGAAUCGGAAAAAAGGGAAAAAAGGGAAAAAAGGAAAGUAUUAUGUUACGCCGUUCGGAUCUGCA,-0.791
GCAGGAAGUAAAAACAAAUGGAAAUGCUUCGGAUAGUGGCACGGGUGGGGGUUGCUAAGGAAAGGGUGGGAUGGGAGUGGGUAAAGAGUU,0.867
